Assay results from different studies.
Each numbered part is a random draw from the data of one study; scales do not carry over between parts.

Series 1
Target: RNA binding protein fox-1 homolog 2, RRM domain, GST-SBP tag (RBFOX2, Homo sapiens, UniProt O43251-10, residues 100-194)
Technique: RNA Bind-n-Seq
Form: RNA
Medium: in vitro
Concentration: 365 nM
Setting: natural RNA segment, single round, ends assumed
Baseline: no-protein control
Direction: higher = stronger binding
Residues (chain): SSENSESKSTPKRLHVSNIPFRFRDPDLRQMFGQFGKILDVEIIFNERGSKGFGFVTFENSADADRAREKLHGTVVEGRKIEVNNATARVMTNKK
Sequence | RBNS enrichment (R)
GGGAGUUCUACAGUCCGACGAUCUCAUGUACCCAGUGUUAACUCUUUGUUGUUGUCCCUUUCAAAUAUGGAUAACUCUGUGAACAGUCUUGACUUUUUGUAUCAUGAGACAGAGUGCCUAAGAGAAACCCUUGUGGAAUUCUCGGGUGCCAA | 0.207
GGGAGUUCUACAGUCCGACGAUCUCCUGGAGCUAAUACACUGUUUCACUGCCUCUGCCAUAUAAUGAUGCCAGCACUAGCCAGCUGGUGGGUAUUUGGAGGAAUCCUGCAUGAGGAUUGCCCAAUAAGGGGCAUGGAAUUCUCGGGUGCCAA | 2.2
GGGAGUUCUACAGUCCGACGAUCUACAACGAACCGAUCACCAGCUCCUUUUCAUUUUUAACUCUUUAAAAGGAUUCAAACGCAACUCAAAUCUGUGCUGGACUUUUGAAAAACCACAAUUCAGGACCAAAUUUUGGAAUUCUCGGGUGCCAA | 0.781

Series 2
Target: TATA-box-binding protein 1 (TBP1, Arabidopsis thaliana, UniProt P28147, residues 1-200, full length assumed)
Technique: protein-binding microarray
Form: double-stranded DNA, one strand shown
Medium: in vitro
Concentration: not given
Setting: k-mer, scored over probes, only values ≥0.25
Direction: higher = stronger binding
Target sequence (chain): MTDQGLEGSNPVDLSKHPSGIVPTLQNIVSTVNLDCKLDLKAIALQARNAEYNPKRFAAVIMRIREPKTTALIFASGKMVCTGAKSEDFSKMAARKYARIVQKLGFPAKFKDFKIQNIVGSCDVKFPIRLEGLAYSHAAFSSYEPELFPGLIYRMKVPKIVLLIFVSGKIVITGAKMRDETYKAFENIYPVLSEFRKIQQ
Sequence | E-score
GAAATAC | 0.281
GTATTTA | 0.449
GAAATAA | 0.267

Further values, each from its own experiment
Molecule | target | test | system | setting | scale | quantity | result
PhoQ, residues 284 288 289 292 302 303 GLASVI | PhoP, residues 12 14 15 18 19 NMSFL (Escherichia coli, UniProt P23836) | Sort-seq, item: YFP reporter | E. coli | PhoQ-PhoP variant library, together with: 10 µM Mg2+ | baseline: high Mg2+ state, higher = stronger signaling | fold induction | 13.3
AAACCAAG | Histone acetyltransferase KAT6A, winged helix 2, GST fusion (KAT6A, Homo sapiens, UniProt Q92794, residues 85-181) | protein binding microarray | double-stranded DNA, one strand shown, in vitro | not given, 8-mer, flanks averaged, mean of 2 arrays, mostly near background | baseline: not given, higher = stronger binding | E-score | 0.0016

For quick reference, copied from above (series 1):
Sequence | RBNS enrichment (R)
GGGAGUUCUACAGUCCGACGAUCUCAUGUACCCAGUGUUAACUCUUUGUUGUUGUCCCUUUCAAAUAUGGAUAACUCUGUGAACAGUCUUGACUUUUUGUAUCAUGAGACAGAGUGCCUAAGAGAAACCCUUGUGGAAUUCUCGGGUGCCAA | 0.207
